Results collected from several papers.
Each line is one published result; not all experiments were run side by side. Several values in a cell are separate wells, animals, samples, runs or records.

COc1ccc(-c2ccc(C3CCCCC3)cc2)cc1OC
hepatic clearance (hepatocyte stability; cryopreserved human hepatocytes; 1 µM): 6.2 mL/min/kg

O=C(Nc1cnccc1-c1ccc([18F])cc1)c1ccnc(NC(=O)C2CC2)c1
SUV (mice, transgenic, GSK-3β, early-stage, large intestine; intravenous, dose not given, 120 min): 0.48

COC(=O)[C@@]1(C(C)C)C=C(C(=O)Nc2cccc(C(=O)Nc3ccc(Nc4nccc(-c5cccnc5)n4)c(C)c3)c2)C(=O)CC1
compound remaining (rat, plasma; 10 µM, 20 min): 105%

CCCC[C@H](NC(=O)CNC(=O)CNC(=O)[C@H](CCCCNC(=O)[C@H](CC(=O)O)NC(=O)C(C)c1ccc(CC(C)C)cc1)NC(=O)CN1CCN(CC(=O)O)CCN(CC(=O)O)CCN(CC(=O)O)CC1)C(=O)N[C@H]1CC(=O)NCCCC[C@@H](C(N)=O)NC(=O)[C@H](Cc2c[nH]c3ccccc23)NC(=O)[C@H](CCCNC(=N)N)NC(=O)[C@@H](Cc2ccccc2)NC(=O)[C@H](Cc2c[nH]cn2)NC1=O (stereo partly drawn) [lutetium-177 labelled]
tumour-to-tissue ratio (C57 mice, tumour; intravenous, 0.037 MBq, 4 h; reference: blood): 43.4

COc1cccc(OC)c1-c1cc(C(=O)NC2(C(=O)O)C3CC4CC(C3)CC2C4)nn1-c1ccc(C(=O)N(C)CCCN(C)C(=O)[C@H](CCCCNC(=O)[C@H](CC(C)C)NC(=O)C2OC2C(=O)O)NC(=O)CN2CCN(CC(=O)[O-])CCN(CC(=O)[O-])CCN(CC(=O)[O-])CC2)cc1C(C)C.[177Lu+3] (mixture of isomers)
tumour-to-bone ratio (mouse, HT-29 xenograft; 24 h post injection, biodistribution; reference: tumour over bone uptake): 28.1

C=C[C@]1(C)C[C@@H](OC(=O)CSc2ccc(NC(=O)c3ccco3)cc2)[C@]2(C)[C@H](C)CC[C@]3(CCC(=O)[C@H]32)[C@@H](C)[C@@H]1O
AUC(0-24 h) (M. gallisepticum-infected chickens, plasma; intramuscular, 40 mg/kg single dose): 10200 ng·h/mL and 10100 ng·h/mL

Cc1ncsc1-c1ccc(CNC(=O)[C@@H]2C[C@@H](O)CN2C(=O)[C@@H](NC(=O)COCC(C)(COCCOCCOCCNC(=O)C[C@@H]2N=C(c3ccc(Cl)cc3)c3c(sc(C)c3C)-n3c(C)nnc32)COCCOCCOCCNC(=O)C[C@@H]2N=C(c3ccc(Cl)cc3)c3c(sc(C)c3C)-n3c(C)nnc32)C(C)(C)C)cc1
plasma concentration (male C57BL/6 mice, plasma; subcutaneous, 5 mg/kg, 15 min, 20-fold diluted sample): 871 ng/mL and 1240 ng/mL

C=C(NC(=O)c1csc(-c2nc3c(cc2O)-c2nc(cs2)C(=O)NC(C(C)O)C(=O)NC(=C(C)OC)c2nc(cs2)C(=O)NC2c4nc(cs4)C(=O)NC(COC(=O)c4c5c6c(cccc6n4O)COC(=O)C(OC4CC(C)(O)C(N(C)C)C(C)O4)C2OC5)c2nc-3cs2)n1)C(N)=O (stereo not drawn)
volume of distribution (Sprague-Dawley rat, both sexes, plasma; intravenous infusion, 6 mg/kg single dose): 24.1 L/kg

O=C(NCc1cccc(Cl)c1)c1ccc([C@H]2[C@@H](F)[C@@H](F)C[C@@H](F)[C@H]2F)cc1
hepatic clearance (hepatocyte stability; cryopreserved human hepatocytes; 1 µM): 12 mL/min/kg

COc1cccc(OC)c1-c1cc(C(=O)NC2(C(=O)O)C3CC4CC(C3)CC2C4)nn1-c1ccc(C(=O)NCCNC(=O)[C@H](CCCCNC(=O)[C@H](CC(C)C)NC(=O)C2OC2C(=O)O)NC(=O)CN2CCN(CC(=O)[O-])CCN(CC(=O)[O-])CCN(CC(=O)[O-])CC2)cc1C(C)C.[177Lu+3] (mixture of isomers)
tumour-to-kidney ratio (mouse, HT-29 xenograft; 72 h post injection, biodistribution; reference: tumour over kidney uptake): 1.49

O=C(CN1CCOCC1)Nc1ccc(C2CCCCC2)cc1
hepatic clearance (liver microsome stability; rat liver microsomes; 1 µM): 45 mL/min/kg

C=Cc1ccccc1[B-]12OC(=O)C(c3ccccc3)=N[N+]1=Cc1ccc(N(CC)CC)cc1O2 (stereo not drawn)
fluorescence emission maximum (toluene): 507 nm

F[C@@H]1[C@H](c2ccc(-c3cnc(N4CCOCC4)nc3)cc2)[C@H](F)[C@H](F)C[C@@H]1F
hepatic clearance (hepatocyte stability; cryopreserved rat hepatocytes; 1 µM): 18 mL/min/kg

C=CC(=O)Nc1cc(Nc2nccc(-c3cn(C)c4ccccc34)n2)c(OC)cc1N(C)CCNC
recovery (storage stability; human plasma; 2 h, -80 °C, LQC level): 103%

O=C(Nc1ccc([C@H]2[C@@H](F)[C@@H](F)C[C@@H](F)[C@H]2F)cc1)C1CC1
hepatic clearance (hepatocyte stability; cryopreserved human hepatocytes; 1 µM): 12 mL/min/kg

CC[C@H](C)[C@H](NC(=O)[C@@H](NC(=O)[C@H](CCCCN)NC(=O)[C@@H](NC(=O)[C@@H]1CCCN1[C@@H]1CN(C(=O)[C@@H](NC(=O)[C@@H](NC(=O)[C@@H](NC(=O)[C@@H](NC(=O)[C@@H](NC(=O)[C@@H](N)CCCCN)C(C)C)C(C)C)C(C)C)[C@@H](C)CC)[C@@H](C)O)CC[C@H]1NS(=O)(=O)c1ccc(C)cc1)[C@@H](C)O)C(C)C)C(=O)N[C@@H](CC(C)C)C(=O)N[C@@H](Cc1c[nH]cn1)C(N)=O
helix content (CD spectroscopy; 20 mM phosphate buffer; 125 µM, 20 °C): 12.1%

O=C(c1ccc([C@H]2[C@@H](F)[C@@H](F)C[C@@H](F)[C@H]2F)cc1)N1CCCC1
hepatic clearance (liver microsome stability; human liver microsomes; 1 µM, without NADPH): 3.9 mL/min/kg

O=C(CN1CN(c2ccccc2)C2(CCN(C(=O)c3ccc4[nH]ncc4c3)CC2)C1=O)N(CCO)CC(F)(F)F
CLint (human liver microsomes): 54 µL/min/mg protein

Repeated from above:
O=C(CN1CCOCC1)Nc1ccc(C2CCCCC2)cc1
hepatic clearance (liver microsome stability; rat liver microsomes; 1 µM): 45 mL/min/kg
